Assay results gathered from unrelated publications.
Parts stem from different laboratories: compare values within a part only. “And” joins repeats or separate records; there may be more than shown.
Chain of UniProt P49759 (whole entry, looked up): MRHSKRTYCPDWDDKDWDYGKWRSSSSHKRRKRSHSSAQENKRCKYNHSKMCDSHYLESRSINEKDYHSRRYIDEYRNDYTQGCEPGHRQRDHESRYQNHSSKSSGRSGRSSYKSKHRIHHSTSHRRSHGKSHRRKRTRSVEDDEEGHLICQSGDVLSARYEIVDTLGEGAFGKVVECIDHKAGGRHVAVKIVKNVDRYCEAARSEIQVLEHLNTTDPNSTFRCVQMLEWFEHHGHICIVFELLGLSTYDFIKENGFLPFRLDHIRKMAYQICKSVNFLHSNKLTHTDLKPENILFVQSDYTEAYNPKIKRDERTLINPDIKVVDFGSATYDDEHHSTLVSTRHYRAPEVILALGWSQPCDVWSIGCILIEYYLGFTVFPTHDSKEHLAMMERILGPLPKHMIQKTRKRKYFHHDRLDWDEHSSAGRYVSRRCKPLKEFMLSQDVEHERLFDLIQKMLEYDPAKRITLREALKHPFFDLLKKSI
Chain of UniProt O75385 (whole entry, looked up): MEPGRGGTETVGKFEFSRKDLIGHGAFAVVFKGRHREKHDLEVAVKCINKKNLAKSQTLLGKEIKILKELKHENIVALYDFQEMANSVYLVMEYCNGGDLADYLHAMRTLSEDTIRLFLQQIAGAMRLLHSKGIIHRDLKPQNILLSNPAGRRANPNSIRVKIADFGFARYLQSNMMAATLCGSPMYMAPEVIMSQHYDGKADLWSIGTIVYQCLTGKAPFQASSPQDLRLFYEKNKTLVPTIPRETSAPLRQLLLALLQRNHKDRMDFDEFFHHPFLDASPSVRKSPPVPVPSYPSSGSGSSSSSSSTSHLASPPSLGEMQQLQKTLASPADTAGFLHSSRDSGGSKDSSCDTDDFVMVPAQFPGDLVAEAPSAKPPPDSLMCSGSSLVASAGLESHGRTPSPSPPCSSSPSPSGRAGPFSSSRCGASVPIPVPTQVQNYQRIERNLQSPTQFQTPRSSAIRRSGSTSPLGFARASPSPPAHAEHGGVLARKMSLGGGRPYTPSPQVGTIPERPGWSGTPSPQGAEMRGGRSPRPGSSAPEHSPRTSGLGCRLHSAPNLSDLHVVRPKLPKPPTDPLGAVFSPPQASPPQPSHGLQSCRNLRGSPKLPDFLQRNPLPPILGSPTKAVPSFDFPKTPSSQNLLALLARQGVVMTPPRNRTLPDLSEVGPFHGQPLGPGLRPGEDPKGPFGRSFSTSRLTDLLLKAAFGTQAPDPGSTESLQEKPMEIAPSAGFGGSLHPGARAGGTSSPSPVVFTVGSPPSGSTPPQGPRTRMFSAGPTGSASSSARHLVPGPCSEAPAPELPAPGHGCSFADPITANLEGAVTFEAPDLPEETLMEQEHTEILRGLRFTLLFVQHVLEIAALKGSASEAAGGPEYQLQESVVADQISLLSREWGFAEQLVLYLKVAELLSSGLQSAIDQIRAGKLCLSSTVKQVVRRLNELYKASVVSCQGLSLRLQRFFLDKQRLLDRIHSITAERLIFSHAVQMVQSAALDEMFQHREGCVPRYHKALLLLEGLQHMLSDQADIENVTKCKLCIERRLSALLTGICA
Chain of UniProt P20794 (whole entry, looked up): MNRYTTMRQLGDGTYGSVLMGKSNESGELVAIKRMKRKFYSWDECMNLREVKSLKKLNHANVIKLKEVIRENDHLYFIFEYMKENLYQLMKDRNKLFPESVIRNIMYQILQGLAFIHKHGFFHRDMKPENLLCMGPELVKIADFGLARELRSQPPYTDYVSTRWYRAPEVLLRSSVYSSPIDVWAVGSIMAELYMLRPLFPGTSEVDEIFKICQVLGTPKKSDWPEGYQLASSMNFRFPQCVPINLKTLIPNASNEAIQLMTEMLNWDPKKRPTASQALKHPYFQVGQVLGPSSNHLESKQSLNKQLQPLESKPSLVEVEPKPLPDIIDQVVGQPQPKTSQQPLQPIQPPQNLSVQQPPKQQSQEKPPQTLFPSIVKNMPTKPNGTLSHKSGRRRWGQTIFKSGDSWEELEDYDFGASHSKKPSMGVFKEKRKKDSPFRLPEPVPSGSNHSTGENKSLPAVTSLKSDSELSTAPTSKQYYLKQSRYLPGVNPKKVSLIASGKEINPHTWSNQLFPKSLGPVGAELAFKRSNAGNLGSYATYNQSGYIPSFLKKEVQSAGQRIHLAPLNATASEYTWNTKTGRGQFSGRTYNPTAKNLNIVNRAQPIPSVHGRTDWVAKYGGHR
Chain of UniProt Q15835 (whole entry, looked up): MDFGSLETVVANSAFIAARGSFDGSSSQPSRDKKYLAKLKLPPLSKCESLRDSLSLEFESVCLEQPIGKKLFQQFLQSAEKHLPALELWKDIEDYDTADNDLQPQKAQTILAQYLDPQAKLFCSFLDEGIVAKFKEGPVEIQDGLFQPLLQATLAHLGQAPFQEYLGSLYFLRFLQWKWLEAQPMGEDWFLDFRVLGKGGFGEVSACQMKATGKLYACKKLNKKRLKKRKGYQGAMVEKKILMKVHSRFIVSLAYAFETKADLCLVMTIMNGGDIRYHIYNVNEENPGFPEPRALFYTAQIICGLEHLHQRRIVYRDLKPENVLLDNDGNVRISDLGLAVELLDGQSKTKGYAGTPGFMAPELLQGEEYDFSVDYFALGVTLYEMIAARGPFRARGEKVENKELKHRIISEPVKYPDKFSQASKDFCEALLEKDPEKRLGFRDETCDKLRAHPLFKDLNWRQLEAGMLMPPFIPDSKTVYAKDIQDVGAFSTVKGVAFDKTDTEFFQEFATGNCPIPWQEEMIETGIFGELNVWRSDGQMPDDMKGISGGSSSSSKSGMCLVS
Chain of UniProt Q9NY57 (whole entry, looked up): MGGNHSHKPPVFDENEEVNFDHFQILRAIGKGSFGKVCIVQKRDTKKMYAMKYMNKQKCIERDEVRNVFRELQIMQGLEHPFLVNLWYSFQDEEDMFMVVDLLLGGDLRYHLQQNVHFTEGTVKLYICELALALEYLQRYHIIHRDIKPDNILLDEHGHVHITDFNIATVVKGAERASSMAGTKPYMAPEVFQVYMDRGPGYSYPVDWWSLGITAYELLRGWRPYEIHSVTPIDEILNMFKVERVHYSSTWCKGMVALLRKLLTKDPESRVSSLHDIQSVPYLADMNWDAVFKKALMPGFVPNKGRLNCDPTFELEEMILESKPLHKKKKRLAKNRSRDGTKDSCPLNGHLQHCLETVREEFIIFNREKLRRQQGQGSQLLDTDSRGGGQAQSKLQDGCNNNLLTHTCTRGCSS
Chain of UniProt Q9UK32 (whole entry, looked up): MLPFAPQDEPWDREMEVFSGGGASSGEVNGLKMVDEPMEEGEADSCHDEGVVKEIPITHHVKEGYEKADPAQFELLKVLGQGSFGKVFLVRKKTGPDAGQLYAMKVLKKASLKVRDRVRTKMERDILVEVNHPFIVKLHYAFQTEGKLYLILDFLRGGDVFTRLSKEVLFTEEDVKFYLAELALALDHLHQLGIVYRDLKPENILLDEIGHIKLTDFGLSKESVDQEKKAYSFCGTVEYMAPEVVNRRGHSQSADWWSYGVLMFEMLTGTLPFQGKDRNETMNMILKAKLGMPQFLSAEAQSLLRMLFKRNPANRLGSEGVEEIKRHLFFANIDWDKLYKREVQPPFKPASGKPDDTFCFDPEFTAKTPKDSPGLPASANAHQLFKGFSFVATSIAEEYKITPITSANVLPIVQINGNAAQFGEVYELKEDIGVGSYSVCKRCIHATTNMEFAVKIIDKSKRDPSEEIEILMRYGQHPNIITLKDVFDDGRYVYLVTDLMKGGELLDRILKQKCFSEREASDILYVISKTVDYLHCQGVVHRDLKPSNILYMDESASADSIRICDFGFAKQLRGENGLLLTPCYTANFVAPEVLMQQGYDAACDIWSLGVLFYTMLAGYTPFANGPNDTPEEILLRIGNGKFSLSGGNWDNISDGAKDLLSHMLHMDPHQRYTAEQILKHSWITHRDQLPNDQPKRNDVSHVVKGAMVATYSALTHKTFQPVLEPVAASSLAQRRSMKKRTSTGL
Chain of UniProt Q07002 (whole entry, looked up): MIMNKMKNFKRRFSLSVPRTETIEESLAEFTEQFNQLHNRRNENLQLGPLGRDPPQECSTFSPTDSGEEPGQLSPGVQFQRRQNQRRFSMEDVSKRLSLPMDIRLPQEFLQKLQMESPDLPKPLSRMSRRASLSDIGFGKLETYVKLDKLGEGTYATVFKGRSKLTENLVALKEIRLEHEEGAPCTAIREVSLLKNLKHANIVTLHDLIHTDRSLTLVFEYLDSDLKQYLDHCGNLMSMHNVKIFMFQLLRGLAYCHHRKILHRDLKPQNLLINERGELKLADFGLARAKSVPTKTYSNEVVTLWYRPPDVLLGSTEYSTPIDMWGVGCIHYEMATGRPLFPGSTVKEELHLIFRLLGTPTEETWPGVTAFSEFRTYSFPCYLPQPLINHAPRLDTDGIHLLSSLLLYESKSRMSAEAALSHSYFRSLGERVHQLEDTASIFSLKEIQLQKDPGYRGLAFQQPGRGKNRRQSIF
Chain of UniProt Q8NI60 (whole entry, looked up): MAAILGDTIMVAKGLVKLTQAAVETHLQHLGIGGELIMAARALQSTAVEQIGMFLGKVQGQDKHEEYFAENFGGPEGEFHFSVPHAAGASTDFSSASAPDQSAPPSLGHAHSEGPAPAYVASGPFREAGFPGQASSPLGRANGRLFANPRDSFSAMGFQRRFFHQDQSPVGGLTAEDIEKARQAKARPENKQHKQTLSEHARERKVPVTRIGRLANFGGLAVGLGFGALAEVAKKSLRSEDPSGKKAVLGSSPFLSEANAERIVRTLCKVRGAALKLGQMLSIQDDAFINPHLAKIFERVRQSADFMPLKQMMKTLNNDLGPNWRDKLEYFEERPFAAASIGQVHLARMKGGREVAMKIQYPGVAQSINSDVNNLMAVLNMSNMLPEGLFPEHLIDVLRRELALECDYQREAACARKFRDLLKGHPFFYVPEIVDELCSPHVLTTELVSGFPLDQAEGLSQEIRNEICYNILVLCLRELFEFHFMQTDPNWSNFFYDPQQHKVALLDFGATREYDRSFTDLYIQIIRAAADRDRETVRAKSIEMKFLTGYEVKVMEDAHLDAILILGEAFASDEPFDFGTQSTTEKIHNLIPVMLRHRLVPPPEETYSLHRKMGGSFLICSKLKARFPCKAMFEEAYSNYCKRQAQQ

Sample 1 — cell line: mouse MPNST tumor cells; technique: high-content immunofluorescence imaging; refers to: nuclear SOX9; tested at: 10 µM; time: 12 h; setting: mean of 2 replicates; relative to: DMSO control; direction: higher = more nuclear SOX9
SMILES | nuclear SOX9 intensity
CCN(CC)CCOC(=O)C(c1ccccc1)c1ccccc1 | 89.6 % of DMSO
N=c1nc(N2CCCCC2)cc(N)n1O | 93.6 % of DMSO and 90.9 % of DMSO
CCN(c1nc(N)c(C(=O)N=C(N)N)nc1Cl)C(C)C | 115 % of DMSO
CN(C)c1cc(NC(=O)CNC(C)(C)C)c(O)c2c1CC1CC3C(N(C)C)C(=O)C(C(N)=O)=C(O)C3(O)C(=O)C1=C2O (stereo not shown) | 100 % of DMSO
CC(C)CNc1nc(-c2cccc3ncccc23)cn2c(-c3ccc(C(=O)NC4CC4)cc3)cnc12 | 139 % of DMSO

Sample 2 — host: human; sample: microsomes or S9; tested at: 2 µM; time: 0.5 h
SMILES | remaining compound
CC(C)C1CC(n2cc(C(=O)O)nn2)c2cc(Cl)ccc2O1 (stereo not shown) | > 99.9%
Cc1cnn(CC2CN(c3nccn4nc(C)cc34)CCO2)c1 (stereo not shown) | 82.7%
Cc1cc(C(=O)Nc2ccc3ccccc3c2)no1 | 48.8%
COc1nc(OC)nc(Oc2ccc(NC(=O)c3c[nH]c4ccccc34)cc2)n1 | > 99%

Sample 3 — cell line: HaCaT; tested at: 100 µM; time: 60 h
Compound | viability [%]
O=c1c(-c2ccc(O)cc2)coc2cc(O[C@@H]3O[C@H](CO)[C@@H](O)[C@H](O)[C@H]3O)ccc12 | 39.6
CC(C)(C)NCC(O)c1ccc(O)c(CO)c1 (stereo not shown) | 152
Cn1c(=O)cc(N2CCC[C@@H](N)C2)n(Cc2ccccc2C#N)c1=O | 119
O=C(O)c1ccccc1Nc1cccc(C(F)(F)F)c1 | 99.1

Sample 4 — technique: competition with immobilised ligand; tested at: 1 µM
SMILES: COc1cc(-c2cn(C3CCc4c(F)cccc4N(CC(F)(F)F)C3=O)nn2)ccc1-n1cnc(C)c1 (stereo not shown)
target | read-out | remaining binding [%]
Mitogen-activated protein kinase 1 (MAPK1, Homo sapiens, UniProt P28482) | cell-free assay | 100
Rhodopsin kinase GRK1 (GRK1, Homo sapiens, UniProt Q15835) | cell-free assay | 99
Ribosomal protein S6 kinase alpha-6, N-terminal kinase domain (RPS6KA6, Homo sapiens, UniProt Q9UK32) | cell-free assay | 82
Epidermal growth factor receptor (EGFR, Homo sapiens, UniProt P00533) | binding | 0
Mitogen-activated protein kinase 8 (MAPK8, Homo sapiens, UniProt P45983) | cell-free assay | 52
Serine/threonine-protein kinase ULK1 (ULK1, Homo sapiens, UniProt O75385) | cell-free assay | 100
Serine/threonine-protein kinase 32B (STK32B, Homo sapiens, UniProt Q9NY57) | cell-free assay | 100
Platelet-derived growth factor receptor alpha (PDGFRA, Homo sapiens, UniProt P16234) | cell-free assay | 100
Cyclin-dependent kinase 18 (CDK18, Homo sapiens, UniProt Q07002) | cell-free assay | 100
Phosphatidylinositol 3-kinase C2 domain-containing subunit gamma (PIK3C2G, Homo sapiens, UniProt O75747) | cell-free assay | 72
Phosphatidylinositol 4-phosphate 5-kinase type-1 gamma (PIP5K1C, Homo sapiens, UniProt O60331) | cell-free assay | 90
Leucine-rich repeat serine/threonine-protein kinase 2 (LRRK2, Homo sapiens, UniProt Q5S007) | cell-free assay | 57
Serine/threonine-protein kinase MAK (MAK, Homo sapiens, UniProt P20794) | cell-free assay | 100
Calcium/calmodulin-dependent protein kinase type II subunit gamma (CAMK2G, Homo sapiens, UniProt Q13555) | cell-free assay | 100
Serine/threonine-protein kinase DCLK1 (DCLK1, Homo sapiens, UniProt O15075) | cell-free assay | 100
Mast/stem cell growth factor receptor Kit (KIT, Homo sapiens, UniProt P10721, V559D) | cell-free assay | 100
Mitogen-activated protein kinase kinase kinase 12 (MAP3K12, Homo sapiens, UniProt Q12852) | cell-free assay | 100
Inhibitor of nuclear factor kappa-B kinase subunit beta (IKBKB, Homo sapiens, UniProt O14920) | cell-free assay | 100
Muscle, skeletal receptor tyrosine-protein kinase (MUSK, Homo sapiens, UniProt O15146) | cell-free assay | 100

Sample 5 — read-out: enzyme activity; action: inhibitor; tested at: 1 µM
SMILES: C=CC(=O)N1CCC([C@@H]2CCNc3c(C(N)=O)c(-c4ccc(Oc5ccccc5)cc4)nn32)CC1
target | inhibition [%]
Phosphatidylinositol 4-kinase beta (PI4KB, Homo sapiens, UniProt Q9UBF8) | 0
Receptor tyrosine-protein kinase erbB-3 (ERBB3, Homo sapiens, UniProt P21860) | 53
Tyrosine-protein kinase Srms (SRMS, Homo sapiens, UniProt Q9H3Y6) | 88
Mitogen-activated protein kinase kinase kinase 20 (MAP3K20, Homo sapiens, UniProt Q9NYL2) | 17

Sample 6 — technique: competition with immobilised ligand; tested at: 1 µM
SMILES: C[C@H]1CC[C@H](n2c3cnccc3c3cnc(Nc4ccc5c(n4)CCN(C(=O)CO)C5)nc32)CC1
target | read-out | remaining binding [%]
Ephrin type-A receptor 1 (EPHA1, Homo sapiens, UniProt P21709) | cell-free assay | 91
Activin receptor type-2A (ACVR2A, Homo sapiens, UniProt P27037) | cell-free assay | 100
Atypical kinase COQ8A, mitochondrial (COQ8A, Homo sapiens, UniProt Q8NI60) | cell-free assay | 90
Dual specificity protein kinase CLK1 (CLK1, Homo sapiens, UniProt P49759) | binding | 0.6

Excerpt of the above (sample 2):
SMILES | remaining compound
CC(C)C1CC(n2cc(C(=O)O)nn2)c2cc(Cl)ccc2O1 (stereo not shown) | > 99.9%
Cc1cnn(CC2CN(c3nccn4nc(C)cc34)CCO2)c1 (stereo not shown) | 82.7%
Cc1cc(C(=O)Nc2ccc3ccccc3c2)no1 | 48.8%
COc1nc(OC)nc(Oc2ccc(NC(=O)c3c[nH]c4ccccc34)cc2)n1 | > 99%
